Results pooled from the literature.
A part holds a random share of what one study measured. Several values in a cell are separate wells, animals, samples, runs or records.
Sequence of UniProt P32300 (whole entry, looked up): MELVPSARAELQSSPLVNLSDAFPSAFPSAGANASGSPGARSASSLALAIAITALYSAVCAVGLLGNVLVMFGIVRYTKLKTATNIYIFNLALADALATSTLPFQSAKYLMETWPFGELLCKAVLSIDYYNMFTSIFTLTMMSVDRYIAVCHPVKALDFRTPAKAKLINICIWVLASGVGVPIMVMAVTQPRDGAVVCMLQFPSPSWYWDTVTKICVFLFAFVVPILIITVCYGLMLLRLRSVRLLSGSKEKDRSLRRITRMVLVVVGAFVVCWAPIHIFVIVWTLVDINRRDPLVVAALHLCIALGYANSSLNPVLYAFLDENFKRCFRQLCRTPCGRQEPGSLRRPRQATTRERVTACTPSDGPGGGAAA
Sequence of UniProt P41143 (whole entry, looked up): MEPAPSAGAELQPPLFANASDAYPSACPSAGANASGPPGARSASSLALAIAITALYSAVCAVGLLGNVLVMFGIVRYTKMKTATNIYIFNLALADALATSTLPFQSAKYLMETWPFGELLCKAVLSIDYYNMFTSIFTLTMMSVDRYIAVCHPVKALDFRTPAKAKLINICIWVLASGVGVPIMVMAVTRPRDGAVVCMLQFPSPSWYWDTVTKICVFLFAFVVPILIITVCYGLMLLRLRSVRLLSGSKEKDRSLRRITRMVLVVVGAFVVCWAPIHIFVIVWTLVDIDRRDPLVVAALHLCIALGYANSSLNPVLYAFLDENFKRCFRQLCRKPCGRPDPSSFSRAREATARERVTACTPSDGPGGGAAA

Block 1
SMILES: COc1cc(C(=O)OCCCN2CCCN(CCCOC(=O)c3cc(OC)c(OC)c(OCc4ccc([N+](=O)[O-])cc4)c3)CC2)cc(OC)c1OC
Route: subcutaneous
Dose: 30 mg/kg
system	setting	concentration
CD-1 mice, male, spinal cord	8 h	25.6 ng/mL
mouse CD-1 male, trigeminal ganglion	12 h	11.5 ng/mL
CD-1 mice, male, brain	0.5 h	95.5 ng/mL

Block 2
SMILES: Cn1cc(-c2cccc(CN3CCC4(CC3)COc3c4ccc4c3CN([C@H]3CCC(=O)NC3=O)C4=O)c2)cn1
system	setting	remaining compound [%]
mouse plasma	5 min, mean	116
human plasma	15 min, mean	109
mouse plasma	30 min, mean	117
mouse plasma	120 min, mean	108
human plasma	5 min, mean	108
human plasma	0 min	100
monkey plasma	15 min, mean	108
mouse plasma	60 min, mean	108
monkey plasma	0 min	100
monkey plasma	30 min, mean	120

Block 3
Target: Membrane-associated tyrosine- and threonine-specific cdc2-inhibitory kinase (PKMYT1, Homo sapiens, UniProt Q99640)
Sequence of UniProt Q99640 (whole entry, looked up): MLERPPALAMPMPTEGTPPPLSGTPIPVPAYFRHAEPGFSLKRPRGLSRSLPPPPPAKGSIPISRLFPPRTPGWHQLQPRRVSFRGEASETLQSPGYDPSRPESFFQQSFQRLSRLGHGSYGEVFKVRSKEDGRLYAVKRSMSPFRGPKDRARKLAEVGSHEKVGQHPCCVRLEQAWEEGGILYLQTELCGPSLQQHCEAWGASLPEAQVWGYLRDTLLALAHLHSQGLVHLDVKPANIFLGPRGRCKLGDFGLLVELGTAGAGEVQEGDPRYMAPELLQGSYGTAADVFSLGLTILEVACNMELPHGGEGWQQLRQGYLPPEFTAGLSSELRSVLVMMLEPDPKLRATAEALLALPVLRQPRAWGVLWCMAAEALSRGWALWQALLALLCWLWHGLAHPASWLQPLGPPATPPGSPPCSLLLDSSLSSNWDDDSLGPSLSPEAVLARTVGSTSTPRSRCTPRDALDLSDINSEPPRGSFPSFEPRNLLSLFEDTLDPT
Read-out: binding
Technique: HTRF
Tested at: 4.12 nM
Structure (SMILES)	inhibition
Cc1ccc(O)c(C)c1-c1cnc2[nH]c(-c3cnc(N4CCC(CN5CCN(c6ccc(C(=O)NC7CCC(=O)NC7=O)c(F)c6)CC5)CC4)nc3)cc2c1C#N (racemic)	42.8% and 43.5%
Cc1ccc(O)c(C)c1-c1cnc2[nH]c(-c3cnc(N4CCC(CN5CCN(c6ccc7c8c(cccc68)C(=O)N7C6CCC(=O)NC6=O)CC5)CC4)nc3)cc2c1C#N (racemic)	25% and 20.3%
Cc1ccc(O)c(C)c1-c1cnc2[nH]c(-c3cnc(N4CCC(CN5CCN(c6ccc(N7CCC(=O)NC7=O)cc6F)CC5)CC4)nc3)cc2c1C#N	49% and 50.4%

Mixed results
Compound	tested on	test	system	setting	endpoint	value
N=C(N)NCCCCCCN1CC[C@]23c4c5ccc(O)c4O[C@H]2c2[nH]c4ccccc4c2C[C@@]3(O)[C@H]1C5	Delta-type opioid receptor, with Gi1 (OPRD1, Homo sapiens, UniProt P41143)	agonist			EC50	11.2 nM
Cc1cc(-c2cnc(N)c3c(-c4ccc5scnc5c4)csc23)n(C)n1		CCK-8	L929, mouse	12.5 µM, MEM with 10% FBS, together with: zVAD	viability	58.9% and 62% and 56% and 61.6% and 59.6%
N=C(N)NCCCCCCN1CCC23c4c5ccc(O)c4OC2c2nc4ccccc4cc2CC3(O)C1C5 (stereo not drawn)	Delta-type opioid receptor, with Gi1 (Oprd1, Mus musculus, UniProt P32300)	Gi1 activation, agonist, cell-based			Emax	71%
CC(C)(C)n1nc(-c2ccc(Cl)cc2)c2c(N)ncnc21	L929	necroptosis protection, CCK-8		10 µM, together with: TNF-α-induced	viability	65.6%
C=CCN1C(=O)C(O)(C(=O)O)Oc2cc(F)ccc21 (stereo not drawn)	Setaria viridis	fresh weight		150 g ai/ha, pre-emergence treatment	inhibition	51.2% and 48.2% and 50.6%

A few entries again (block 1):
system	setting	concentration
CD-1 mice, male, brain	0.5 h	95.5 ng/mL
